Published values gathered from unrelated publications.
A part holds a random share of what one study measured.
UniProt O14578, sequence (whole entry, looked up): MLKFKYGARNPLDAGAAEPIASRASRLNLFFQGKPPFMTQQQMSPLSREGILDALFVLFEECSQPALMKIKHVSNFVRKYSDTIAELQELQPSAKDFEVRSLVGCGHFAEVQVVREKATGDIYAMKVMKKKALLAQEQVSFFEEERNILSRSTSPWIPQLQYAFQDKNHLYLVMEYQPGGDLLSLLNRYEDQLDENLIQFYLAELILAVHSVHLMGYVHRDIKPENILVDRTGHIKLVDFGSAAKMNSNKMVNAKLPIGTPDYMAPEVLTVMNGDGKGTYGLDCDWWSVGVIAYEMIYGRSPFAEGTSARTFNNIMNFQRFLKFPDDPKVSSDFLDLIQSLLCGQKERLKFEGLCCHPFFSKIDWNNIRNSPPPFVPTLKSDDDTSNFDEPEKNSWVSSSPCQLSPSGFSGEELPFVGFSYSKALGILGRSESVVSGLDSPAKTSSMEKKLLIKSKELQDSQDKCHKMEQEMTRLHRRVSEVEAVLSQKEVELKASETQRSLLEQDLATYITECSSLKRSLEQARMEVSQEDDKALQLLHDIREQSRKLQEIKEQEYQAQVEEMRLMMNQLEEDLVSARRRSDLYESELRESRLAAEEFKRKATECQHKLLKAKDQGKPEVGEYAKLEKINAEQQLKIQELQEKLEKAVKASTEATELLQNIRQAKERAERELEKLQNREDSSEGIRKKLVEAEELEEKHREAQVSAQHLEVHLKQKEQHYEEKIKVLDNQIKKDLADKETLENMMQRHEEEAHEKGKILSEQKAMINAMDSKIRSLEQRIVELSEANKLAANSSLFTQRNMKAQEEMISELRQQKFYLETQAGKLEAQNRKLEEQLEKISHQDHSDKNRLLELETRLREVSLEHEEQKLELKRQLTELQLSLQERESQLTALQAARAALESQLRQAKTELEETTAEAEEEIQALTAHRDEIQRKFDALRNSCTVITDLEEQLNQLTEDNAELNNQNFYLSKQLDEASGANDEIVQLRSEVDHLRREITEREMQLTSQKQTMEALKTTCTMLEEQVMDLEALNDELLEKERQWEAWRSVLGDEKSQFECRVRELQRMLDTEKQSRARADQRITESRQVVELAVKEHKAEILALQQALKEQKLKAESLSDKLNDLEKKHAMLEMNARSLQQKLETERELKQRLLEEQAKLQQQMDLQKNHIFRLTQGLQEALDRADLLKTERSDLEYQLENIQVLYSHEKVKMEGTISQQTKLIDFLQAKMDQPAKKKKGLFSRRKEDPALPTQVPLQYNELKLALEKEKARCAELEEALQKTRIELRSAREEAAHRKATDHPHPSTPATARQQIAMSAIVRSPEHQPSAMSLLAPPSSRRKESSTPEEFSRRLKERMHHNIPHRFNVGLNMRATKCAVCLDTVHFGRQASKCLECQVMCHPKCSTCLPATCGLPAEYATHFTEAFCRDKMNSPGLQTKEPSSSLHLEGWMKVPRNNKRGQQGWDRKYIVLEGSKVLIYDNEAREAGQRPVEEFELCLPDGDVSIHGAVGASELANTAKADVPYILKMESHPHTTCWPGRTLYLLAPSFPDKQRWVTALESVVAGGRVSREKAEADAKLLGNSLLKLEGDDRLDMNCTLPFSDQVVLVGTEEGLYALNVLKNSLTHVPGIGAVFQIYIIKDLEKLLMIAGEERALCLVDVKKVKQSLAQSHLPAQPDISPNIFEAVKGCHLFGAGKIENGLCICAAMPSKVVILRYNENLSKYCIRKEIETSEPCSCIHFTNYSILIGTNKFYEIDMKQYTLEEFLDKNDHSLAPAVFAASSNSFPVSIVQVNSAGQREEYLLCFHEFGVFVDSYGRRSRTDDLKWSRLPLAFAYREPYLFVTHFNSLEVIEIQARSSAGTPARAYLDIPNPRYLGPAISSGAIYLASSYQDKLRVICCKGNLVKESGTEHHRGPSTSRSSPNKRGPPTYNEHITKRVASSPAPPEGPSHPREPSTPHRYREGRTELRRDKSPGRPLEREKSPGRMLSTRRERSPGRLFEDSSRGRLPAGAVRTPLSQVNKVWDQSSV
UniProt O60674, sequence (whole entry, looked up): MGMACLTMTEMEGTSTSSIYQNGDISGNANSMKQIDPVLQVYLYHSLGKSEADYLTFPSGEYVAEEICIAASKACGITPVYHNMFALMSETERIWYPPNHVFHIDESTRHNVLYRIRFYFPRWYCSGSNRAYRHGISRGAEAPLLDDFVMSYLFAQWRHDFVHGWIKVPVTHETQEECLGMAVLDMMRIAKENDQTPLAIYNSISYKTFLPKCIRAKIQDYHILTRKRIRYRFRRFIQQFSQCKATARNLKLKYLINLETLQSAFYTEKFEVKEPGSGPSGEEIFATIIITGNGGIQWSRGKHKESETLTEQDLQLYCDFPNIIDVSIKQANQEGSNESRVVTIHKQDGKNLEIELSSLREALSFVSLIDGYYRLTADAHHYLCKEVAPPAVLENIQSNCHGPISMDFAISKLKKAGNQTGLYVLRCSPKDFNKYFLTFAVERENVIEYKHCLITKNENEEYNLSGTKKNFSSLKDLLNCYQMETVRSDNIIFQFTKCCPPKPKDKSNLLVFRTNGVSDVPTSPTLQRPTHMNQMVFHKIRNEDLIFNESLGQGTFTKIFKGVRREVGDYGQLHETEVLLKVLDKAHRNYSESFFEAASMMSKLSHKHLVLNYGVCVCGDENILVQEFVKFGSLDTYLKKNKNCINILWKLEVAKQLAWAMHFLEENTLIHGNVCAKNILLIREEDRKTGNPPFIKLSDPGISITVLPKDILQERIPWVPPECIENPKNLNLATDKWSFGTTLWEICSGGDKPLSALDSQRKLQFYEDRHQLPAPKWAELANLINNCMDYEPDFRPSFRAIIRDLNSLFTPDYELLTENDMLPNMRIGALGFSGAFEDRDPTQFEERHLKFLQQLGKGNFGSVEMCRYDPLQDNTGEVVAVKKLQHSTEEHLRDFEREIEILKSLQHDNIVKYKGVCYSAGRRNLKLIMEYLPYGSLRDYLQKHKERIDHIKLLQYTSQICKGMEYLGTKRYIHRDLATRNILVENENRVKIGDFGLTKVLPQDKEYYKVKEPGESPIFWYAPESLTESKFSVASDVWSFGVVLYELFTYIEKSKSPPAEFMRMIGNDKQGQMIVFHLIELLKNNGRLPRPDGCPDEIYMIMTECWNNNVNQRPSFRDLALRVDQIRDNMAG
UniProt Q6P2M8, sequence (whole entry, looked up): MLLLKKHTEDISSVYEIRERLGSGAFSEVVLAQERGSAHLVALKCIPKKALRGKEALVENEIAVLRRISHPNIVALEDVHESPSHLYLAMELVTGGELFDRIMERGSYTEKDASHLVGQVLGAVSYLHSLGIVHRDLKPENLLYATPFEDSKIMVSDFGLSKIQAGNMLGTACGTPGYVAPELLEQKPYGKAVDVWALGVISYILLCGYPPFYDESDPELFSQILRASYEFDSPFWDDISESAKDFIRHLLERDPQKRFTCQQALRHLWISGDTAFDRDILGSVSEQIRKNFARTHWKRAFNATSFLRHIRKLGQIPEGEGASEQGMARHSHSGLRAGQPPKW

Study 1 — read-out: enzyme activity; action: inhibitor; concentration: 10 µM
Target: Calcium/calmodulin-dependent protein kinase type II subunit alpha (CAMK2A, Homo sapiens, UniProt Q9UQM7)
UniProt Q9UQM7, sequence (whole entry, looked up): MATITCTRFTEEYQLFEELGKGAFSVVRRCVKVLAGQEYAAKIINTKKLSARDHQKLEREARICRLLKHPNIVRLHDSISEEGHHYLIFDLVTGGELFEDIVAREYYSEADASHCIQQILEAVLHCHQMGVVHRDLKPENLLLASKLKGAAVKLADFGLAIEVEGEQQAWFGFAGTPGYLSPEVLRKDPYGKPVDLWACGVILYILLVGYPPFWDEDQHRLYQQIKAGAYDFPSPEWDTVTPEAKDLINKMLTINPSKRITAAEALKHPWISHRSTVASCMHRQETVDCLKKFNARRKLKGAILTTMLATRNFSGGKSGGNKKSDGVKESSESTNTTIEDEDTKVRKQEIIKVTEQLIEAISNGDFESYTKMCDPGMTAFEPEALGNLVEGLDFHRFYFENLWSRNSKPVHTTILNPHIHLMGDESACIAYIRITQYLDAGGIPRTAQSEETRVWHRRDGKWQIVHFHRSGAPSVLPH
The inhibition of C=Cc1ccc(O)c(OC)c1 is reported as -4%.
The inhibition of CC(C)=CCC[C@]1(C)CC[C@]2(C)[C@H]3CC[C@@]4(C)[C@@H](CCC(=O)[C@@H]4C)[C@]3(C)CC[C@@]2(C)C1 is reported as 23%.
With C=CC(=O)Nc1cccc(Oc2nc(Nc3ccc(N4CCN(C)CC4)cc3)nc3ccsc23)c1 the inhibition was 3%.
C[C@]12CC[C@@H]3c4ccc(O)cc4CC[C@H]3[C@@H]1CC[C@@H]2OC(=O)CCC1CCCC1 gave an inhibition of -8%.
The inhibition of CC(=O)OCC(=O)[C@@]1(O)[C@H](C)C[C@H]2[C@@H]3CCC4=CC(=O)C=C[C@]4(C)[C@@]3(F)[C@@H](O)C[C@@]21C is reported as -2%.
CCCSc1nc(N[C@@H]2C[C@H]2c2ccc(F)c(F)c2)c2nnn([C@@H]3C[C@H](OCCO)[C@@H](O)[C@H]3O)c2n1 gave an inhibition of -7%.
For NC(=O)[C@@H]1CCCN1C(=O)[C@H](Cc1c[nH]cn1)NC(=O)[C@@H]1CCC(=O)N1, the inhibition was -8%.
With CC1=NCC[C@@H](C(=O)O)N1 the inhibition was 15%.
N[C@H]1[C@H](O[C@H]2[C@H](O)[C@@H](N)C(O)O[C@@H]2CO)O[C@H](CO)[C@@H](O)[C@@H]1O (stereo partly shown) gave an inhibition of 14%.
The inhibition of C[C@@H]1O[C@@H](OC[C@H]2O[C@@H](Oc3c(-c4ccc(OCCO)c(OCCO)c4)oc4cc(OCCO)cc(O)c4c3=O)[C@H](O)[C@@H](O)[C@@H]2O)[C@H](O)[C@H](O)[C@H]1O is reported as 2%.
Cn1c(=O)c2c(ncn2CCO)n(C)c1=O gave an inhibition of -4%.
CC[C@H](C)C[C@H](C)CCCCCCCCC(=O)N[C@H]1C[C@@H](O)[C@@H](O)NC(=O)[C@@H]2[C@@H](O)CCN2C(=O)[C@H]([C@H](O)CC(N)=O)NC(=O)[C@H]([C@H](O)[C@@H](O)c2ccc(O)cc2)NC(=O)[C@@H]2C[C@@H](O)CN2C(=O)[C@H]([C@@H](C)O)NC1=O gave an inhibition of -1%.
The inhibition of O=c1ccn([C@@H]2O[C@H](COP(=O)(O)OP(=O)(O)OP(=O)(O)OP(=O)(O)OC[C@H]3O[C@@H](n4ccc(=O)[nH]c4=O)[C@H](O)[C@@H]3O)[C@@H](O)[C@H]2O)c(=O)[nH]1 is reported as 1%.

Study 2 — read-out: cell-free assay; technique: competition with immobilised ligand; concentration: 1 µM
Compound: CCCOc1ccc([C@@H]2[C@@H](C(=O)O)[C@H](c3ccc4c(c3)OCO4)CN2CC(=O)Nc2c(CC)cccc2CC)cc1
For TNNI3K (Homo sapiens, UniProt Q59H18): remaining binding read 84%.
It gave 100% for remaining binding (PIK3CA (Homo sapiens, UniProt P42336, C420R)).
For Receptor-type tyrosine-protein kinase FLT3, autoinhibited (FLT3, Homo sapiens, UniProt P36888): remaining binding read 71%.
It gave 100% for remaining binding (STK3 (Homo sapiens, UniProt Q13188)).
The remaining binding was 96% (TGFBR2 (Homo sapiens, UniProt P37173)).
The remaining binding was 84% (LRRK2 (Homo sapiens, UniProt Q5S007)).
The remaining binding was 93% (AXL (Homo sapiens, UniProt P30530)).
DDR1 (Homo sapiens, UniProt Q08345) — remaining binding: 89%.
Tyrosine-protein kinase JAK2, JH1 (JAK2, Homo sapiens, UniProt O60674) — remaining binding: 79%.
It gave 100% for remaining binding (PNCK (Homo sapiens, UniProt Q6P2M8)).
BMX (Homo sapiens, UniProt P51813) — remaining binding: 100%.
CDK9 (Homo sapiens, UniProt P50750) — remaining binding: 87%.
The remaining binding was 100% (Cyclin-dependent kinase 4, with cyclin D1 (CDK4, Homo sapiens, UniProt P11802)).
MAPK6 (Homo sapiens, UniProt Q16659) — remaining binding: 59%.
It gave 100% for remaining binding (EPHA2 (Homo sapiens, UniProt P29317)).
MAPK9 (Homo sapiens, UniProt P45984) — remaining binding: 80%.
It gave 97% for remaining binding (MAP4K4 (Homo sapiens, UniProt O95819)).
RAF1 (Homo sapiens, UniProt P04049) — remaining binding: 100%.
For NEK7 (Homo sapiens, UniProt Q8TDX7): remaining binding read 100%.
For ULK1 (Homo sapiens, UniProt O75385): remaining binding read 77%.
It gave 98% for remaining binding (CIT (Homo sapiens, UniProt O14578)).
For LYN (Homo sapiens, UniProt P07948): remaining binding read 96%.

Study 3 — read-out: enzyme activity; action: inhibitor; concentration: 0.5 µM; baseline: control
Target: Ephrin type-A receptor 8 (EPHA8, Homo sapiens, UniProt P29322)
UniProt P29322, sequence (whole entry, looked up): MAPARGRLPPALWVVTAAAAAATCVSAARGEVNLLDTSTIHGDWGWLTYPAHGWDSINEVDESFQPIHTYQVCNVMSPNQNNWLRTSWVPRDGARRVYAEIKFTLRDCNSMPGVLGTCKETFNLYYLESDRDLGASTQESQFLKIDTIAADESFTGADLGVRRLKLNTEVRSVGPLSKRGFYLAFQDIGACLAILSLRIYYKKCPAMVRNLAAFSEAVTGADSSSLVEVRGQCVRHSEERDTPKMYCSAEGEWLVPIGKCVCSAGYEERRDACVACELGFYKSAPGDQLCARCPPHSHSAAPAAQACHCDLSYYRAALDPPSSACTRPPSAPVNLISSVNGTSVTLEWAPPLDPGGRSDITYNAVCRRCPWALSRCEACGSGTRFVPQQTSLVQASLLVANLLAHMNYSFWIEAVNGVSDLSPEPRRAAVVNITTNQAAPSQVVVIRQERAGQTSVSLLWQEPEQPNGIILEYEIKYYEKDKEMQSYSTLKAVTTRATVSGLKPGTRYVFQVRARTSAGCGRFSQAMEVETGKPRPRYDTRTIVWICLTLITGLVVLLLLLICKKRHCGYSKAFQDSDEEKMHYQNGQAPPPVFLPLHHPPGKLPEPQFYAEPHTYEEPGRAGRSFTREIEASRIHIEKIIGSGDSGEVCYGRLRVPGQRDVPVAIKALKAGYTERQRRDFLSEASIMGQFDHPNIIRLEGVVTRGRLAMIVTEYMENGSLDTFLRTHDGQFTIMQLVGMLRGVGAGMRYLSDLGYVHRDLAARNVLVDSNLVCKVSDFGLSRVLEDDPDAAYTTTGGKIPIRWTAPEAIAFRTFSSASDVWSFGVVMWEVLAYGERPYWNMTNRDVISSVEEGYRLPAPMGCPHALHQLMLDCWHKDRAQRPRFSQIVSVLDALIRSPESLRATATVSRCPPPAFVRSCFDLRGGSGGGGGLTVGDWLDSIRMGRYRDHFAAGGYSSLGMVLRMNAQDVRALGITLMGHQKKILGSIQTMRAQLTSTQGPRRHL
COc1cc2c(N3CCN(C(=O)Nc4ccc(OC(C)C)cc4)CC3)ncnc2cc1OCCCN1CCCCC1 has a remaining activity of 96.6%.
For CNc1cc2c(Nc3cccc(Br)c3)ncnc2cn1, the remaining activity was 87.9%.
For O=C1NC(=O)/C(=C/c2ccc3c(c2)OC(F)(F)O3)S1, the remaining activity was 93.8%.
The remaining activity of COc1cc2c(Nc3ccc(Br)cc3F)ncnc2cc1OCC1CCN(C)CC1 is reported as 33.9%.
CCN(CC)CCCCN1c2ccccc2Oc2ccc(Cl)cc21 gave a remaining activity of 102%.
For N#C/C(=C(/N)SC1C=CC=CC1)c1cccc(C(O)c2ccncc2)c1 (stereo not shown), the remaining activity was 97%.
FC(F)(F)c1ccc(/C=C/c2nc(COc3ccc(CCCCn4ccnn4)cc3)co2)cc1 gave a remaining activity of 104%.
For CC(C)n1cnc2c(Nc3cccc(Cl)c3)nc(NCCO)nc21, the remaining activity was 98.2%.
CCCCc1c(-c2ccc(O)cc2)[nH]c2nccnc12 has a remaining activity of 97.4%.
For C[C@@H](N)[C@H]1CC[C@H](C(=O)Nc2ccncc2)CC1, the remaining activity was 91.4%.
With NC(=O)c1ccc(-c2nc(-c3ccc4c(c3)OCCO4)c(-c3ccccn3)[nH]2)cc1 the remaining activity was 101%.
NC(=O)c1cccc(-c2cc(Nc3ccc(OC(F)(F)F)cc3)ncn2)c1 gave a remaining activity of 94.5%.
CC(C)(C)c1nc2c3cc[nH]c(=O)c3c3cc(F)ccc3c2[nH]1 gave a remaining activity of 105%.
With O=c1c(-c2ccc(F)cc2)c(-c2ccncc2)[nH]n1-c1ccc(Cl)cc1 the remaining activity was 94.4%.
Nc1nc(Nc2ccc(S(N)(=O)=O)cc2)nn1C(=S)Nc1c(F)cccc1F has a remaining activity of 98.5%.
O=C(O)/C=C/c1cc(Br)c(Br)c(Br)c1Br gave a remaining activity of 99.1%.
The remaining activity of O=C1c2ccccc2-c2nc3nnnn3nc21 is reported as 92.6%.
c1cc(-c2cnn3cc(-c4ccc(OCCN5CCCCC5)cc4)cnc23)ccn1 gave a remaining activity of 79.8%.
With N#CC(c1ccnc(NCCc2cccnc2)n1)c1nc2ccccc2s1 (stereo not shown) the remaining activity was 98.5%.
For O=Nc1c(-c2c(O)[nH]c3ccccc23)[nH]c2ccccc12, the remaining activity was 91.1%.
With CC(C)N(CCC(=O)c1ccc2ccccc2c1)Cc1ccccc1 the remaining activity was 95.9%.

Study 4 — SMILES: O=C(Nc1ccccc1)Nc1cccc(Oc2ccc3nccn3n2)c1; concentration: 1 µM
TEK (Homo sapiens, UniProt Q02763) — remaining activity: 7.6%.
For DDR2 (Homo sapiens, UniProt Q16832): remaining activity read 99%.
The remaining activity was 0% (CIT (Homo sapiens, UniProt O14578)).
The remaining activity was 1.1% (PDGFRA (Homo sapiens, UniProt P16234)).
For CDK8 (Homo sapiens, UniProt P49336): remaining activity read 24%.
The remaining activity was 31% (DCLK3 (Homo sapiens, UniProt Q9C098)).
It gave 0% for remaining activity (KIT (Homo sapiens, UniProt P10721)).
It gave 79% for remaining activity (MTOR (Homo sapiens, UniProt P42345); biochemical).

Repeated from above (study 2):
The remaining binding was 84% (LRRK2 (Homo sapiens, UniProt Q5S007)).
The remaining binding was 93% (AXL (Homo sapiens, UniProt P30530)).
DDR1 (Homo sapiens, UniProt Q08345) — remaining binding: 89%.
Tyrosine-protein kinase JAK2, JH1 (JAK2, Homo sapiens, UniProt O60674) — remaining binding: 79%.
It gave 100% for remaining binding (PNCK (Homo sapiens, UniProt Q6P2M8)).
BMX (Homo sapiens, UniProt P51813) — remaining binding: 100%.
CDK9 (Homo sapiens, UniProt P50750) — remaining binding: 87%.
The remaining binding was 100% (Cyclin-dependent kinase 4, with cyclin D1 (CDK4, Homo sapiens, UniProt P11802)).
MAPK6 (Homo sapiens, UniProt Q16659) — remaining binding: 59%.
It gave 100% for remaining binding (EPHA2 (Homo sapiens, UniProt P29317)).
